# Published values of several laboratories.
# Numbered parts are unrelated; each lists some results of a single study.

# Sample 1 — technique: protein binding microarray; molecule type: double-stranded DNA, one strand shown; matrix: in vitro; concentration: not given; baseline: not given; direction: higher = stronger binding
# Target: Histone acetyltransferase KAT6A, winged helix 2, GST fusion (KAT6A, Homo sapiens, UniProt Q92794, residues 85-181)
# Setting: 8-mer, flanks averaged, mean of 2 arrays, mostly near background
# Construct (chain): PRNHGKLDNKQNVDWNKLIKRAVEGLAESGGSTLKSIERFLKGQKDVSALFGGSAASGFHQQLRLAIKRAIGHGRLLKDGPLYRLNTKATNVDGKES
Sequence,E-score
GAGATCTC,-0.191
CAGATAAA,-0.0119
AGGCGTAC,0.0725
CGATGCCC,0.0206
GTTCAGGA,-0.0883
CGTACACG,-0.0206
ATGTTCCC,-0.0443
GAGGTCCA,0.0936
CAGCGTAA,-0.0557
GAAATCCC,0.0763
AGAAACAA,0.118
AGGCGCCA,-0.0254
TCCCGGAA,0.181
AAGTAAGA,-0.119
GGCCCGAA,0.148
GGTCAGGA,0.102
AGTCAACC,-0.0994
GTCAGTGA,0.0925
AGCTCAAT,0.0295
TCAATCGA,-0.18
GCTGAGCA,0.142
AATTCGGG,0.029
CTACGAAC,0.0544
AGCTTGAT,-0.0299
CACAATGC,-0.196

# Sample 2 — technique: protein-binding microarray; molecule type: double-stranded DNA, one strand shown; matrix: in vitro; concentration: 2200 nM top; setting: 60-bp whole probe; added: salmon DNA 0.4 mg/ml; baseline: random background probes; direction: higher = stronger binding; constant ends, left off below: GCCTAGCAC … GTCTTGATTCGCTTGACGCTGCTG
# Target: Interferon regulatory factor 7, full length, phosphomimetic (IRF7, Homo sapiens, UniProt Q92985, residues 1-503, S471D/S472D/S475D/S476D/S477D/S483D/S484D/S487D)
# Residues (chain): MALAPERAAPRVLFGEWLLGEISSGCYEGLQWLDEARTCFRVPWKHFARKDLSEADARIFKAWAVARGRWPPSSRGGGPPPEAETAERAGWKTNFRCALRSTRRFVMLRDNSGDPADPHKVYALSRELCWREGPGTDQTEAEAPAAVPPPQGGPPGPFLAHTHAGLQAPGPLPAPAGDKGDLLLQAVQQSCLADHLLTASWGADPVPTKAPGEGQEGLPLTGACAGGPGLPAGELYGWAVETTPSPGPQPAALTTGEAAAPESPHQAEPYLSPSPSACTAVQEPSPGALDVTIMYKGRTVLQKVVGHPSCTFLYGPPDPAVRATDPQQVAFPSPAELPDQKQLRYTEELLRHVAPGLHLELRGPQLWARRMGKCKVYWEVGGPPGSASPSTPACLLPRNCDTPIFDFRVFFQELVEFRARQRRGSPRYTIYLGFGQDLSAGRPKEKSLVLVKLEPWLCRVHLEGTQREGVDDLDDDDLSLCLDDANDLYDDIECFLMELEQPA
Sequence,fitted relative affinity [z-score]
TTTTTTTTTTTTTTGTATTTGTGCTAG,2.36
TTAGGTATCAACACTGGGTTAGTGCTA,-0.104
GACGGTTTCGGGTTTGGGGACGTGCTA,8.71
TTAGGTTTCGATTTCGGTTAGTGCTAG,13.2
TCAACTTTGGAGATGACACTGTGCTAG,0.26
TTAGCACTGGGACTGGGTTAGTGCTAG,-0.438
GACGATTTCAGTCTCGTGACGTGCTAG,0.863
GACGGGCTGGGGTATCGGGACGTGCTA,-0.854
ATTGCTTCCTCTTTTTTGTTGTGCTAG,2.64
GACGATTACAGTTCCGAGACGTGCTAG,0.766
TTTGAACTGAGACTGGATTAGTGCTAG,-0.514
TCATTTCTCCTTTCCAAACTGTGCTAG,3.88
GACGGTATCGACACCGGGGACGTGCTA,-0.35
TTCTTTATGCACTCTTTACATGTGCTA,1.25
TTAGGTTCCCTTTACCTTTAGTGCTAG,2.15
GACGGACAGCTACTGCTGACGTGCTAG,-0.73
TCCATTTTCTAAATGCCCTAGTGCTAG,3.92
GACGAACTGAATTTCGAGACGTGCTAG,0.968

# Sample 3 — technique: universal PBM; molecule type: double-stranded DNA, one strand shown; matrix: in vitro; concentration: 600 nM; direction: higher = stronger binding
# Target: Sal-like protein 4, full length isoform A (SALL4, Homo sapiens, UniProt Q9UJQ4, residues 1-1053)
# Sequence of UniProt Q9UJQ4 (whole entry, looked up): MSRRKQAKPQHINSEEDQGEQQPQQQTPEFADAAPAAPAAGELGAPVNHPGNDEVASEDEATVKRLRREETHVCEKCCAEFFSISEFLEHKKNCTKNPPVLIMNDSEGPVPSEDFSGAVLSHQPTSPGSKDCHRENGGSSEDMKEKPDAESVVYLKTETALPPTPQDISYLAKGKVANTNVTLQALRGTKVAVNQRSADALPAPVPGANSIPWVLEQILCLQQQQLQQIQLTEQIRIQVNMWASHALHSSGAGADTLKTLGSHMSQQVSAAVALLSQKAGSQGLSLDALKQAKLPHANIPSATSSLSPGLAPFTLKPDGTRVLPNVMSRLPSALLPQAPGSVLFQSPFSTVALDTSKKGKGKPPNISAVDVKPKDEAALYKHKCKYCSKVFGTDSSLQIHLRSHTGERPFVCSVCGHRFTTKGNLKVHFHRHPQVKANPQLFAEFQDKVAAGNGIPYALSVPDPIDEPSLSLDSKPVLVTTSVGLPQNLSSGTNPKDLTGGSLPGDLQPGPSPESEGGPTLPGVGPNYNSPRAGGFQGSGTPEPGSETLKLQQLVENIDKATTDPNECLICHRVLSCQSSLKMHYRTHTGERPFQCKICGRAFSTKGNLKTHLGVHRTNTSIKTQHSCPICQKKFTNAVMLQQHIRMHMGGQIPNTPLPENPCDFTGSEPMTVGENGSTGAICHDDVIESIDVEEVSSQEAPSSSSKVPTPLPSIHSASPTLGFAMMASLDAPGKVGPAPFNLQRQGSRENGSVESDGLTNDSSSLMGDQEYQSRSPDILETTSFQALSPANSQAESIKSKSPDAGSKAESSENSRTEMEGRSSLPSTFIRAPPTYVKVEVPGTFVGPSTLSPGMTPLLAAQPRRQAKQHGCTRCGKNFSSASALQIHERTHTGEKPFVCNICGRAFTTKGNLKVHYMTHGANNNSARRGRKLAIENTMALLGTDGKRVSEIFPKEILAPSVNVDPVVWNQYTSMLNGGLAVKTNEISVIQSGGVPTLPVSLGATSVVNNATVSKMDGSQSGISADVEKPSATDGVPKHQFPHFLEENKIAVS
# Setting: 8-mer, flanks averaged, mean of replicates
Sequence,E-score
ACTGGCCC,-0.18
ACCACTTG,0.00276
GCCTAAAA,-0.066
GGGTAGAC,-0.291
CTCGACGC,-0.155
CATAGGAC,-0.0275
ACACTTTA,0.203
ATCGTGGG,-0.0473
TAAGTCGA,0.105
GGCGCTTA,-0.272
ATTTGAAA,0.288
CGACCCAG,-0.332
ATGGCCCA,-0.0722
AGCGGAAT,0.0489
TCCGGGCA,-0.296
AACTCCAT,0.0351
ATTAACCG,0.0804

# Sample 4 — technique: RNA Bind-n-Seq; molecule type: RNA; matrix: in vitro; concentration: 365 nM; baseline: no-protein control; direction: higher = stronger binding
# Target: RNA binding protein fox-1 homolog 2, RRM domain, GST-SBP tag (RBFOX2, Homo sapiens, UniProt O43251-10, residues 100-194)
# Setting: natural RNA segment, single round, ends assumed
# Constant ends, left off below: GGGAGUUCUACAGUCCGACGAUC … UGGAAUUCUCGGGUGCCAA
# Residues (chain): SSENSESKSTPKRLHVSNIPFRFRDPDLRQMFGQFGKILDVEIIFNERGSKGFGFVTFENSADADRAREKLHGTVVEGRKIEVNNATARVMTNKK
Sequence,RBNS enrichment (R)
UUGAUUAAAAAAAAUAUAUCUACAUAGUCUUAAUUUGUAAAAAAUAAAGAAAAUUCCUUAACCUUUGCUGGUGUCUCAGUGUUAAAUCAGGGGCAUGCUGGGUUAGGGUU,1.16
UUCCCAGUCCCAGCAGGCAGAAUGCCCAAAACCAGGAGCACGAAGGCCUGUCAUCCAUGGGGCCAUUGCAGGCACUCUGCCGCCCGACCUUGAGGGCUGUGCCAAUCCUA,1.29
UUGUUUGAGGUAAAAGCCUUAAAAUUUAGCUCCCUAGCUCUUGAUUAGAAGCAAUUUGGAGUAAGUGUGUUUUGAUUUAGGCAGGGUAGCUUGGGAUACCUUUUUAAAAA,0.659
GCCCUUCUGCUCCAGCUUGCUGGAUGUUACCUGUCCUCUUCCCUCCACAAGUCUUGGCCCUUAACCUUUAUCUUUCUUCCUGUCCUCUCACCUAGAUUGUAAGCUCCCUG,0.819
GCCCCUUCUGAAUCUCUCCAGCAGCCAGAGGCACGUGAGAAGCAGAAAGAGCUGGUAAAUAAAGCCUUGGGCAAGCGACUUCUUAGAUCAGAACUCACCAAAUGGAAGCC,0.445
GAAAUUUCAGCUCUGAGUUUGUGCACAUGAAUACUUACUUGUGUUUACCAAAGGUCUAAGGCAUUUGGUUACUUAACCCAAAUAUCCUGAACUGUGCGUAAAGUAAUAGA,0.296
UACCUUUUAUAACUGGAUGUUUAGUGUUAAACAGCCAGAAUCACAGAGACAGUAUUGUAUAACCAAAGUAUUUGAUGCCAAAAUUUGACGUUAAAAUAAUGAUUUGAUUU,0.322
CUUACUGGGGAAGAGGAAGGACCAUUAGCACACCAUCAUGAUGUCAGAUGACAAAAUGGAAGCCAAGACACCUUGAAGGUGACUUUCUAGGAAGGUCUUAAGCAUGUAAU,3.2
GAGAGCAACCUCCUCCCUCGUAGAGGGAGAUUAUAUCCCCAACUCCAGGGACCUCUUUAUCUCAAUCUAUUUAUUUGGCAUCCUGGGAGGGAUUUCCAAUAGUAAUUUAU,0.25
AGCAUGAUCGGGGACUAAGUUCUCACCCCAGCACUAAAUAAAUAAAACCAAGUCAACAGCCAUCAAGCAGAUAUAUCCCAGGCCGCCCAGGAUGUGUGUCCUCCCUUGUG,8.55
GAGAAUGGCUGCCAGUGGCUGAUGGGUCCCGGUGAUGGGAAGGGUAUCAGGUUGCUGGGGAGUUUCCACUCUUCUCUGGUGAUUGUUCCUUCCCUCCCUUCCUCUCCCAC,0.472
CCUAGGACAGUGUAAUACAUUUAUGUGAAGUAAAGACAUGCGAGACUGGUGGCCUGCAAAUAGCAUCCGUUGAUCUGUGUUAACUGCAUAGGGAGGGCUCUGCAUAGCAC,1.05

# Some of these lines once more (sample 3):
Sequence,E-score
GGGTAGAC,-0.291
CTCGACGC,-0.155
CATAGGAC,-0.0275
ACACTTTA,0.203
ATCGTGGG,-0.0473
TAAGTCGA,0.105
GGCGCTTA,-0.272
